Assay results collected from several papers.
Each numbered part is a random draw from the data of one study; scales do not carry over between parts.

Study 1 — method: RNA Bind-n-Seq; form: RNA; matrix: in vitro; concentration: 365 nM; relative to: no-protein control; reading: higher = stronger binding
Target: RNA binding protein fox-1 homolog 2, RRM domain, GST-SBP tag (RBFOX2, Homo sapiens, UniProt O43251-10, residues 100-194)
Setting: natural RNA segment, single round, ends assumed
All sequences stand within: GGGAGUUCUACAGUCCGACGAUC … UGGAAUUCUCGGGUGCCAA
Residues (chain): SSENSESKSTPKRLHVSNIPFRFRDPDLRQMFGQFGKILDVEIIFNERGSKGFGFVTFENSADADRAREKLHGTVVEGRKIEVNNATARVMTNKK
Strand | RBNS enrichment (R)
CCGCAGCGAAGCUGCCGUUCAUGUGUUGGAGGCCAAAUGUGGCAAACCAACCCCAGGCCCACCCAGAGCGAGCAAACGCUGAGACCUGAAAGGACAUGGAUGAGAAGAGG | 0.386
CCCGGCGCACGUGUGGGCACCACAGAGGACACGUGAGGGGAAUGGUCACCAGUGAGCCAUAUUUAUUAUUUCUAGAGAAAUCACGAACUGCUUUCUGUAAUUGCACUGUG | 0.686
AAGAGGCCUUCCUCCCUCCCUGCUCCACAGGCCCCCUCAGUCCCUGGGAAAGUAUGCACAAAAGAGACUCCCUACAUAGCUCAGAGACUACAGUGCCAAAAUGCCCCAGA | 1.24
CAGCACAUUGCUAUUAAUAGUAUGGAAAUAAUGGUCCCUCUGUUUCAUUGAAUUGCUGAAGUAAUGAUAAUGCCAUGAACCAGGAGAAGAUGGUUGUGGGGGUUUCUAGG | 0.467
GAGGAGAAGUGUAUACAUGUUUUAUUUUAAAUUGUACGAAAGGGGAAUUUAAAAAAUAUGUAACUGCUGUUUAUACAUUGGCUCCUUACUGCUUAUUAAUCUGUAUUGUA | 1.21
AGGAGAGCCUGUCUUGUUGGUGGGACCCUAAUUACCCCUGAGCCUCUCGGGAAUGCUUUUCCAGCAGGGAGCUCUUCCCCUGAAGGAGACUAGCUUGCCUUGGUUUUGAU | 0.786
GCCCAGAUUUCUCUUGACACCAGAAGAUGCUGAGCAAUGGUGUCAAAGGACCAGCUCCACACUGCCCCCUGCAGUUGAAUAGUGGACAGUAGCUGGUGUGACUGAACAGC | 0.261
UUCCCUGCCCCACCCCCUGGCCGCAGCAGGCCAGCACUGCAGAGUUUGGGUGCUGGUGGUGUGGCUGUAGGGGAGGGGAGACCACACCCAAGGUGGGGGCUGUGGCCAUG | 0.895
AGUUUUCUUCAUUGUGCACACAGGACAAAUCUGAUCUCUUUGGGAAAAAAUAGAAAUAAAACAAUCUCCCUCCAUAAUGUGAGCAAUAUUACCUCGUGCAUUGUAUAAUU | 2.07
UCCUGCCAGCGCAUCGGGGAGGGGUGCUCCUGAGGCCAGGCAUGGCCACCACGUGACGCUGUUCUUAGUUCACUAAUGUUAGCCUUAUUUAGGACAAAGUCAGCCAGACA | 0.867
CCGCAGCCCUGCCCUGUCCUGUCCUGUCCUGACUUCAUCUCUCCUUCUGCCCAAGUCUGUGUCCCAUCAGACUUGCAGCCUUUCAGCUUAACAGUUGCCCGGUCCUGCUG | 0.747
UGAUUUGUACUUACACUAAGUUUAGAUUAUCACAAAGAAGAACGUGCAUUCAGGCAGAUGCUGUCCCUUCAGAGGAAGCUACAGCAGUUGCUCCACUGAUGAAAAAUAUU | 0.197

Study 2 — method: protein binding microarray; form: double-stranded DNA, one strand shown; matrix: in vitro; concentration: not given; relative to: not given; reading: higher = stronger binding
Target: Histone acetyltransferase KAT6A, both winged helices, GST fusion (KAT6A, Homo sapiens, UniProt Q92794, residues 1-181)
Setting: 8-mer, flanks averaged, mean of 2 arrays, mostly near background
Residues (chain): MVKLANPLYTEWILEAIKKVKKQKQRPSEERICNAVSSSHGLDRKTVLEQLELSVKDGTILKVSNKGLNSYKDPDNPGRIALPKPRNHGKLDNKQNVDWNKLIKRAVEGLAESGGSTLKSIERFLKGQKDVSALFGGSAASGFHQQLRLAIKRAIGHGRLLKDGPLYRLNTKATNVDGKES
Strand | E-score
AAAATGTG | 0.0307
AATCAAAT | 0.0226
AAGTCGCC | 0.0276
ATTAAAAT | -0.0201
AGCTACAT | -0.244
CTTATCGA | -0.0958
GCTGTGCA | -0.0225
AGAAAAGA | -0.0847
CTATGGTC | -0.119
CAAATAGA | -0.0801
GAAATGTC | 0.0458
ACTGTCAG | 0.103
CGGATAGC | 0.0885
CGTGCCAA | -0.0913
CGACTTCC | 0.125
TACTCTGA | -0.0307
GATCGATA | 0.0333
CCGGGGTA | 0.116
GTACTTCA | 0.00302
CAACTTTC | -0.0398
ACCCAGCA | -0.158
AAGTTCGG | -0.162
GTGTTGTA | -0.0661
ATGCCGGA | 0.194
AGCCAATC | -0.148

Study 3 — method: RNA Bind-n-Seq; form: RNA; matrix: in vitro; concentration: 200 nM; setting: whole 134-nt RNA, ends assumed; with: 150 mM LiCl; relative to: input library; reading: higher = stronger binding; library: 7-deaza-guanosine replaces G
Target: Ras GTPase-activating protein-binding protein 1, full length (G3BP1, Homo sapiens, UniProt Q13283)
UniProt Q13283, sequence (whole entry, looked up): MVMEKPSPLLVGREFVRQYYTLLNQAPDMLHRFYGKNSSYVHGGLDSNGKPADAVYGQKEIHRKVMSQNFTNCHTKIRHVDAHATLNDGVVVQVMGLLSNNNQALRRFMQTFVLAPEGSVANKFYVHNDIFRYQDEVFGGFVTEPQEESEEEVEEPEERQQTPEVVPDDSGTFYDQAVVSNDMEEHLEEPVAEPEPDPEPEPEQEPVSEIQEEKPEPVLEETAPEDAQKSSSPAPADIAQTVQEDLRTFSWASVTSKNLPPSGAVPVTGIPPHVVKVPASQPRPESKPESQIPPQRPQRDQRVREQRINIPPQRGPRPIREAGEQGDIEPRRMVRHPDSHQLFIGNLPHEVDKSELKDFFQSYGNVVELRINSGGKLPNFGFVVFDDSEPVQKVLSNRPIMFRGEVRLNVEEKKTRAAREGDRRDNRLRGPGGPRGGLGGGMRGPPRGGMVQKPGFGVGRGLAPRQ
All sequences stand within: GGGAGUUCUACAGUCCGACGAUC … UGGAAUUCUCGGGUGUCAAGG
Strand | log2 enrichment
CCUGUGCUACACAUCGUAUGUACCGAAUCGGGGAAAAAGGGGUUUUUUUGGGGAAAGGGGAAAGUAUUAUGUUACGCCGUUCGGAUCUGC | -0.449
GUCCUGUGCUACACAUCGUAUGUACCGAAUCGGCCCCCCGGCCCCCCGGCCCCCCGGGGAAAGUAUUAUGUUACGCCGUUCGGAUCUGCA | -0.345
GCAGGAAGUAUAAACAAAUGGAAAUGCUUCGGAUAGUGGCAGGGGUGGGGGUUGCUAAGGAAAGGGUGGGAUGGGAGUGGGUAAAGAGUU | -0.0314
UGGACAGGUUGCUGGACCCCGCCAACAGAGCCCACCUGGGCCUGGAGGAGCAGCUGAGAGAGCUGCUGGACAUGCUCGACCUCACCUGCG | -1.65
GUCCUGUGCUACACAUCGUAUGUACCGAAUCGGGGUUUUUGGGGAAAAAGGGGUGGGGAAAGUAUUAUGUUACGCCGUUCGGAUCUGCAC | -1.14
UGGGAGGUGAAUUUUGUUUAUUUUUUUAGCUCAUUUCCAGGGGUGGGAAUUUUUUUUUAAUAUGUGUCAUGAAUAAAGUUGUUUUUGAAA | -0.647
GUCCUGUGCUACACAUCGUAUGUACCGAAUCGGGGUUUUUGGGGUGGGGUUUUUGGGGAAAGUAUUAUGUUACGCCGUUCGGAUCUGCAC | 0.36
AAGUCCUGUGCUACACAUCGUAUGUACCGAAUCAAACCCCCAAACCCAAAUUUAAAAAAGUAUUAUGUUACGCCGUUCGGAUCUGCACUU | 1.14
AGAAAGCCCAGGAGGAACCACCUGCCAAGCUGCUGGAUGACCUUUUCCGAAAGACCAAGGCAGCUCCCUGCAUCUAUUGGCUCCCACUGA | -0.341
UCAAGUCCUGUGCUACACAUCGUAUGUACCGAAUCGGUUGGGGUUGGGUUGGGGAAAGUAUUAUGUUACGCCGUUCGGAUCUGCACUUCC | -0.0549
UCAAGUCCUGUGCUACACAUCGUAUGUACCGAAUCGGAGGAAAGGUUUUUUUGGAAAGUAUUAUGUUACGCCGUUCGGAUCUGCACUUCC | 0.0204

Study 4 — method: competition protein-binding microarray; form: double-stranded DNA, one strand shown; matrix: in vitro; concentration: 2 µM; with: Cbf1 competitor, 0.05 µM; reading: higher = stronger binding; all sequences stand within: … GTCTTGATTCGCTTGACGCTGCTG
Target: Phosphate system positive regulatory protein PHO4, full length, GST-tagged (PHO4, Saccharomyces cerevisiae, UniProt P07270, residues 1-312)
Setting: whole 60-bp probe, lowest competitor level
Target sequence (chain): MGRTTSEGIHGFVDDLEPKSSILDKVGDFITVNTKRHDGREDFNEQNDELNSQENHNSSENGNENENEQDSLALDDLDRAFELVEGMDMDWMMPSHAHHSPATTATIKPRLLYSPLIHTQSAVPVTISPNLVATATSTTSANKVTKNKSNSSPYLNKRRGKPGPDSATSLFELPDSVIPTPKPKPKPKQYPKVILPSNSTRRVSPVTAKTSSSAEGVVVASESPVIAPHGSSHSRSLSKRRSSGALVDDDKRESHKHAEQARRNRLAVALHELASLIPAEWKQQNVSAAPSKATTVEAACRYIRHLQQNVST
Strand | fluorescence intensity [a.u.]
CATACCCAACCTTGGCACGTGTTTTAAGATATTTGT | 19700
GTCTTGTCTCATTGTCAGGTGGGTGTCCCCACTTCA | 5720
CGGGGTTAAGTTTGACTAGTGGGTGGCTTGCAGCAG | 4060
TCAACACTTCACCAACACGTGTCGGGGACCGCTTCA | 17300
AAAGCGGTAATTTGGCAGGTGGGTGCAGATATCTAT | 7470
CACTCGGCCATGAGGCACATGCAAACAAACGCTGCA | 11800
AAAAATGGTGGAAAGTGCGTGCGGATTTCTCGAGCC | 8730
TCTCGTCTTGCTCTTCTTTTAAGAAATATTTGCCGC | 2820
ATGGCTTTGGCTTTCCACATGGACATCAAGGTCTAC | 6590
TCAGCCTGCTGGATGCACGTGCGTCTCGGCGCCGCC | 15500
CTTTCCCGATCTTGCCCAGTGGGTGTAGCACATTTG | 4180
AAATGGAACGATAGGAACGTGTAACCTACCGCTTCT | 10900
AAAAGAAACAAAGCAAGCGTGCCGAGACTTAGGGTT | 7270
CTTTCCCGATCTTGTCCAGTGGGTGTAGCACATTTG | 4510
AAATTACTAAGTTGTCACCGCACTTACCCCGTATGA | 3680
TTCGCTACAAAATAATGCGTGATGGTTTCAGTGAAG | 5570
AAAGCGGTAATTTGTCACTAGACTTCACATATCTAT | 3500
CATACCCAACCTTGATTTGTGGGTGAAGATATTTGT | 3620
TTATGTTCAACACGACATCCTAACAAATACTACAGC | 6380
GTCTTGTCTCATTGGTAGGTGGGTGTCCCCACTTCA | 5190
AACCGGGTTATTTTGCACGTGATGGGCACTTGGGAG | 14900

Excerpt of the above (study 4):
Strand | fluorescence intensity [a.u.]
CGGGGTTAAGTTTGACTAGTGGGTGGCTTGCAGCAG | 4060
TCAACACTTCACCAACACGTGTCGGGGACCGCTTCA | 17300
AAAGCGGTAATTTGGCAGGTGGGTGCAGATATCTAT | 7470
CACTCGGCCATGAGGCACATGCAAACAAACGCTGCA | 11800
AAAAATGGTGGAAAGTGCGTGCGGATTTCTCGAGCC | 8730
TCTCGTCTTGCTCTTCTTTTAAGAAATATTTGCCGC | 2820
ATGGCTTTGGCTTTCCACATGGACATCAAGGTCTAC | 6590
TCAGCCTGCTGGATGCACGTGCGTCTCGGCGCCGCC | 15500
CTTTCCCGATCTTGCCCAGTGGGTGTAGCACATTTG | 4180
AAATGGAACGATAGGAACGTGTAACCTACCGCTTCT | 10900
AAAAGAAACAAAGCAAGCGTGCCGAGACTTAGGGTT | 7270
